Experimental data of several laboratories.
Parts stem from different laboratories: compare values within a part only. Substitutions count along the parent as printed.

Sample 1
Target: Phosphate system positive regulatory protein PHO4, full length, GST-tagged (PHO4, Saccharomyces cerevisiae, UniProt P07270, residues 1-312)
Technique: competition protein-binding microarray
Molecule type: double-stranded DNA, one strand shown
Medium: in vitro
Concentration: 2 µM
Setting: whole 60-bp probe, lowest competitor level
Added: Cbf1 competitor, 0.05 µM
Direction: higher = stronger binding
Constant ends, left off below: … GTCTTGATTCGCTTGACGCTGCTG
Residues (chain): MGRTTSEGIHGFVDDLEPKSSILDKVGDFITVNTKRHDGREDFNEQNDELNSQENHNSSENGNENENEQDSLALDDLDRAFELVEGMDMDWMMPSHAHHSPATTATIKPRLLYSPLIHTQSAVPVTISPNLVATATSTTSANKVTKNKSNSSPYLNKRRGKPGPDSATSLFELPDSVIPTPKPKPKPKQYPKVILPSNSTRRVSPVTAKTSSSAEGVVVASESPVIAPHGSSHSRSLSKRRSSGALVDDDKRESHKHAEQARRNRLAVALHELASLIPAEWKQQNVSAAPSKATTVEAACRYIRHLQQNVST
Oligonucleotide	fluorescence intensity [a.u.]
CGACGAAGTACTGGACACGTTCCCTTCAAACATCAA	13600
TACGACGGCATTGGGCCCGTGGGTACTCACCGGGTT	8550
CCGGGACATTATAACAACGTGCAAATGGCGATGATT	13600
AAAGCGGTAATTTGTCACAGGACTTCACATATCTAT	3310
TGCGCAACAACTTGCAAAGTGGGTGTATGTCTAGAA	4660
CGTCCTAGTGATTTTCACGTGTTGTCCATGAGGAAG	14700

Sample 2
Target: RNA binding protein fox-1 homolog 2, RRM domain, GST-SBP tag (RBFOX2, Homo sapiens, UniProt O43251-10, residues 100-194)
Technique: RNA Bind-n-Seq
Molecule type: RNA
Medium: in vitro
Concentration: 365 nM
Setting: natural RNA segment, single round, ends assumed
Relative to: no-protein control
Direction: higher = stronger binding
Constant ends, left off below: GGGAGUUCUACAGUCCGACGAUC … UGGAAUUCUCGGGUGCCAA
Residues (chain): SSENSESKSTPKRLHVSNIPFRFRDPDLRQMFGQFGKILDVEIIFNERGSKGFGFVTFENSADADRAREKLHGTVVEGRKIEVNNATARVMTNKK
Oligonucleotide	RBNS enrichment (R)
CAGCGCCUUCCAGCCCUGAGCCCGCCCAGAGGAGCCCAGCGGCCCAAGAGCCCGUGCCACCCCCAGCCCUGGCCCCUCCAAUCCUCCCCGCUCUGCCGCCGCCCGCUGGG	0.591
ACCACAGUCCAUAAUAUAUCAGGAUCUGGCAAGCUUAAGGAACCCAGCUCUUAGAAAUUUCUCUUCUUCUACACUUGUUGCUCUCACCAGUGAAACGCUUUGUAAGGAGG	0.4
ACUUCUAAAAUCCUAGCAAUACUUAGAAUAACACAUCAGUGAGAUAAAUUUUACUCAAUUAUUUUACAAACCAAAUUGAGUUAUUCAAACACAAGCCAGUAUUCUGUGAA	0.386
GGAAGUGAGAAUCCCUGACAUAUAGCUUUCUUGGAGAUCCCAACUCUCAUUCUUGGUGCAACUGGCUUCCAGCUCUCCAGCAGUCACUCUCCUAGGUGCAUGAUUCAGUG	1.87
AAUUUAUAGCUGUCCUUGACCUCGGGUUGGACACACCUGCAACAUGAAUAGUAAGACCUAAUAAUUCCUGGCUUAAAGAAACUGAAGGAAUUACUCUUUUAGAGAAAAAC	0.358
UGGUUGUGAUAUCAUAACUAAGAUCAGUCACCUCCCAGGAGUCUGCAGAGUUCUAGGUACACCACCCGUCUUAAUAUGGGAGCUCCCAUUCUGUAUCAAAAUGGACUGUU	0.378

Sample 3
Target: CCNB2, cyclin fold, Cln2 fusion (human)
Technique: yeast growth competition, sequencing
Medium: yeast
Setting: weak parent motif
Relative to: not given
Direction: higher = stronger binding
Starting sequence: CDC25A docking peptide (human); PPHRRRLLFACSP; partner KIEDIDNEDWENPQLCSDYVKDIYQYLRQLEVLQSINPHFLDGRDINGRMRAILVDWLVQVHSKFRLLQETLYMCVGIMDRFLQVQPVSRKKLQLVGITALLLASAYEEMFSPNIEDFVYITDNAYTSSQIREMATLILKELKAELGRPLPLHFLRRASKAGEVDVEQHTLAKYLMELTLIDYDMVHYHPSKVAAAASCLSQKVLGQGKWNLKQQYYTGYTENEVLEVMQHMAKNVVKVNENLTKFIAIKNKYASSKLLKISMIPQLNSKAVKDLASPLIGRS
Substitution	normalised enrichment score
PPHRRRLLFACSR [P13R]	0.35
PPCRRRLLFACSP [H3C]	0.858
PPHRRHLLFACSP [R6H]	0.511
PPHRRYLLFACSP [R6Y]	0.088

Other studies, line by line
Substance	target	test	system	setting	scale	endpoint	value
PhoQ, residues 284 288 289 292 302 303 SSYNSA	PhoP, residues 12 14 15 18 19 HLGGL (Escherichia coli, UniProt P23836)	Sort-seq, measured: YFP reporter	E. coli	PhoQ-PhoP variant library, added: 10 µM Mg2+	relative to: high Mg2+ state, higher = stronger signaling	fold induction	1.35
